Measurements gathered from unrelated publications.
Each line is one published result; not all experiments were run side by side. Numbers after ± are the reported error.

CCCCCc1nc(N)[nH]c(=O)c1Br
EC50 (reovirus type 1; virus-induced cytopathicity; Vero): > 100 µM

CCOC(=O)C1(Cc2ccccc2)CN(c2ccccc2)Cc2nnn(Cc3ccccc3Cl)c21 (stereo not shown)
EC50 (human adenovirus 2; viral replication; HEL): > 100 µM

COc1cc(NC(C(=O)N2CCc3ccc(OC(F)(F)F)cc32)c2ccc(Cl)cc2)cc(OCCCC(=O)O)c1 (stereo not shown)
EC50 (dengue virus type 2; viral replication, Renilla luciferase reporter virus; Huh-7.5.1; 48 h): 0.0002 µM

CC(C)CC(=O)OC[C@H]1O[C@@](C#N)(c2ccc3c(N)ncnn23)[C@H](O)[C@@H]1O
EC50 (human respiratory syncytial virus; viral replication; HEp-2; without verapamil): 0.301 µM

CC(C)(O)Cc1nc(N)[nH]c(=O)c1Br
EC50 (reovirus type 1; virus-induced cytopathicity; Vero): > 100 µM

COc1cc(N[C@H](C(=O)c2c[nH]c3ccc(OC(F)(F)F)cc23)c2ccc(Cl)cc2OC)cc(S(C)(=O)=O)c1
EC50 (dengue virus type 2; viral replication, Renilla luciferase reporter virus; Huh-7.5.1; 48 h): 2e-05 µM

CCOC(=O)C1(Cc2ccccc2)CN(c2ccccc2)Cc2nnn(Cc3ccco3)c21 (stereo not shown)
EC50 (human adenovirus 2; viral replication; HEL): > 100 µM

C[C@H]1CN(c2n[nH]c3nc(N[C@H]4CC[C@H](NS(=O)(=O)CCC(F)(F)F)CC4)ncc23)CCO1
EC50 (Leishmania donovani; promastigotes, LdBOB CRK12 single knockout): 0.0067 ± 0.00022 µM

Nc1ccn(C[C@@H](CO)OCP(=O)(O)O)c(=O)n1
EC50 (human adenovirus 2; viral cytopathic effect; HEL): 10 µM

COc1ccc(/C=C/c2nc(N)[nH]c(=O)c2Br)cc1OC
EC50 (reovirus type 1; virus-induced cytopathicity; Vero): > 100 µM

COCC(=O)N1CCC[C@H](C(=O)NCc2nc(-c3ccc(C#N)cc3)cs2)C1
EC50 (Plasmodium falciparum; Dd2 β3 R190S resistant): 0.38 ± 0.13 µM

COc1ccnc(C(=O)N[C@H]2COC(=O)[C@H](Cc3ccccc3)[C@@H](OC(=O)C(C)C)[C@H](C)OC2=O)c1OCOC(=O)C(C)C
EC50 (Pseudokirchneriella subcapitata; growth rate; 72 h, static test): > 0.522 µg/mL

CCOC(=O)C1(Cc2ccc(F)cc2)CN(c2ccccc2)Cc2nnn(Cc3ccc(Cl)c(Cl)c3)c21 (stereo not shown)
EC50 (human adenovirus 2; viral replication; HEL): > 100 µM

Nc1nc(CCc2ccccc2)c(Br)c(=O)[nH]1
EC50 (reovirus type 1; virus-induced cytopathicity; Vero): > 100 µM

CCOC(=O)C1(Cc2ccccc2)CN(c2ccccc2)Cc2nnn(Cc3cccc(Cl)c3)c21 (stereo not shown)
EC50 (human adenovirus 2; viral replication; HEL): > 100 µM

O=C(N1CCC2(CC1)C[C@@H](CN1CCCCS1(=O)=O)CCO2)C1(c2ccccc2)CCCC1
EC50 (West Nile virus; viral replication; Vero): > 10 µM

CCOC(=O)C1(Cc2ccccc2)CN(c2ccccc2)Cc2nnn(Cc3ccccc3)c21 (stereo not shown)
EC50 (human adenovirus 2; viral replication; HEL): > 100 µM

CCC(C)n1ncn(-c2ccc(N3CCN(c4ccc(OCC5COC(Cn6cncn6)(c6ccc(Cl)cc6Cl)O5)cc4)CC3)cc2)c1=O (stereo not shown)
EC50 (HRV14; viral replication; 72 h): 0.64 ± 0.08 µM

CCCCCCn1nnc2c1CCN(c1ccccc1)C2
EC50 (human adenovirus 2; viral replication; HEL): > 100 µM

Nc1ccn([C@H]2CC[C@@H](CO)O2)c(=O)n1
EC50 (human adenovirus 2; viral cytopathic effect; HEL): 7.3 µM

CCOC(=O)C1(Cc2ccccc2)CN(c2ccccc2)Cc2nnn(Cc3ccc(Cl)cc3)c21 (stereo not shown)
EC50 (human adenovirus 2; viral replication; HEL): > 100 µM

Nc1nc(CC(O)c2ccc(Cl)cc2)c(Br)c(=O)[nH]1 (stereo not shown)
EC50 (reovirus type 1; virus-induced cytopathicity; Vero): > 100 µM
